Assay results pooled from the literature.
“And” joins repeats or separate records; there may be more than shown. ± marks the error that the study gave.
qscR: qscR (Pseudomonas aeruginosa, UniProt G3XD77)
Sequence of UniProt Q62351 (whole entry, looked up): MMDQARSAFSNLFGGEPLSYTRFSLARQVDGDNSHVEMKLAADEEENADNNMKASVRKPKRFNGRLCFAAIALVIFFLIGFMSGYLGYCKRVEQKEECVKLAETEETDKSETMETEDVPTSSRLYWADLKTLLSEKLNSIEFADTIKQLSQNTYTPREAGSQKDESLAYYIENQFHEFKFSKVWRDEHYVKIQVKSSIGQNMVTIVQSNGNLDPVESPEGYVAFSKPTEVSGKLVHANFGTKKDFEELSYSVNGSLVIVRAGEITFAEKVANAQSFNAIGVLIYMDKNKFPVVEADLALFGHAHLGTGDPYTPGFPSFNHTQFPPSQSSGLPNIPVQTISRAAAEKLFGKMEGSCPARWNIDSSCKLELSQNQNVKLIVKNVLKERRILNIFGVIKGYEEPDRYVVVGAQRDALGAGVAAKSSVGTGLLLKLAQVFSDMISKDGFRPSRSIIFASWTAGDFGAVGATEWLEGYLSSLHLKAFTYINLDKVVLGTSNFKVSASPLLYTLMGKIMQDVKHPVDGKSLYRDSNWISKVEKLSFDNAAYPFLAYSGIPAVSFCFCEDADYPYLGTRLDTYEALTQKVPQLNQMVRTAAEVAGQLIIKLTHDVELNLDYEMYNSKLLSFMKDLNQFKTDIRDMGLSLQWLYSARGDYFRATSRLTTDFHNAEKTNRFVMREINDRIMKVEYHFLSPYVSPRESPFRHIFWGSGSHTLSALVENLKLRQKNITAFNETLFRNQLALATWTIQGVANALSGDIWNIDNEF
Sequence of UniProt Q9NSD7 (whole entry, looked up): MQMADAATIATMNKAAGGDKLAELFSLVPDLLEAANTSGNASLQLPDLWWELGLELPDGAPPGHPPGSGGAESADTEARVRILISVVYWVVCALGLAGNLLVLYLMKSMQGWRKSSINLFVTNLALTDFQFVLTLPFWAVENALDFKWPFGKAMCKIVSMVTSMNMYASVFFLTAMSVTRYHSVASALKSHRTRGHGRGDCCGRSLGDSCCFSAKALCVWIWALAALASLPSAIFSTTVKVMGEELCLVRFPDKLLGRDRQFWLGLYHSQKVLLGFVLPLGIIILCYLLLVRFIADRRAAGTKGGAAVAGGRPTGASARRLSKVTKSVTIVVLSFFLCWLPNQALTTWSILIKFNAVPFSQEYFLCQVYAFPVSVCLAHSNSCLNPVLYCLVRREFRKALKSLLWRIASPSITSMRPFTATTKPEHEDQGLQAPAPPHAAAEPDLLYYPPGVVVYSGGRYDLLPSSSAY
Sequence of UniProt P00942 (whole entry, unmodified, looked up): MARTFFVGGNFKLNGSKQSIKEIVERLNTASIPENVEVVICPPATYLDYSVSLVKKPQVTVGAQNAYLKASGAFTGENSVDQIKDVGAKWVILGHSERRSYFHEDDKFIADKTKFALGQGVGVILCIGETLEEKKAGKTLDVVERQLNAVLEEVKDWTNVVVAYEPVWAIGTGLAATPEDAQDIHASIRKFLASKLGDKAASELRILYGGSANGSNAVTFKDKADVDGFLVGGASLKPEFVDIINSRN
Sequence of UniProt Q9Y6W6 (whole entry, looked up): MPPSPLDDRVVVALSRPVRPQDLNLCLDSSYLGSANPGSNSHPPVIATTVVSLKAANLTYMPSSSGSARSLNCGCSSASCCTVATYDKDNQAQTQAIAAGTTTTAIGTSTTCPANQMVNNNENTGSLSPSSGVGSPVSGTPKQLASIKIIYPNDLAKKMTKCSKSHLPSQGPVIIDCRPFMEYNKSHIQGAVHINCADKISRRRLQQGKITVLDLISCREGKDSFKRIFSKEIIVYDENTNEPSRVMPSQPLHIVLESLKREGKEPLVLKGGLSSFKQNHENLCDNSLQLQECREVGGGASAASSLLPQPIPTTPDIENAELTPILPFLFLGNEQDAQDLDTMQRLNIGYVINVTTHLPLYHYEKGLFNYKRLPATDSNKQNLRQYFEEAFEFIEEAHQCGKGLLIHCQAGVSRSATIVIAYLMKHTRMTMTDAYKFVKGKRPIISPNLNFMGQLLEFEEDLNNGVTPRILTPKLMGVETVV
Sequence of UniProt Q00534 (whole entry, looked up): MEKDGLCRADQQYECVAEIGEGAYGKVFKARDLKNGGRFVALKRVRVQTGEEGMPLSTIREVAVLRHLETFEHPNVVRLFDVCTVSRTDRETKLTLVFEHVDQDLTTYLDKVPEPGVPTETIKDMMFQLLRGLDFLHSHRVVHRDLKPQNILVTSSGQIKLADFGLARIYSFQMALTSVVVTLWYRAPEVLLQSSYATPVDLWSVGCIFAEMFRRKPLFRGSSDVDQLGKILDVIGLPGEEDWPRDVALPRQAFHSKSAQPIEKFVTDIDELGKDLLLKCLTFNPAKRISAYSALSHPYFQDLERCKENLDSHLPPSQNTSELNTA
Sequence of UniProt Q96AM1 (whole entry, looked up): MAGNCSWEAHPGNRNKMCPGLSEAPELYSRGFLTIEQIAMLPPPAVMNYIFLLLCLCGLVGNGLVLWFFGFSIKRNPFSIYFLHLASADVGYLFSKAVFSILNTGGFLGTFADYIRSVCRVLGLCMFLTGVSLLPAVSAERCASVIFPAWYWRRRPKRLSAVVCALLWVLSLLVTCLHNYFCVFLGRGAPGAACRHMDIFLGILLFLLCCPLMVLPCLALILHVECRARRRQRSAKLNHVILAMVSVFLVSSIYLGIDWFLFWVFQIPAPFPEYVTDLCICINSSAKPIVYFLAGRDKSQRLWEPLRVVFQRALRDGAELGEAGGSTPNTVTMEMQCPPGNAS
Sequence of UniProt Q13224 (whole entry, unmodified, looked up): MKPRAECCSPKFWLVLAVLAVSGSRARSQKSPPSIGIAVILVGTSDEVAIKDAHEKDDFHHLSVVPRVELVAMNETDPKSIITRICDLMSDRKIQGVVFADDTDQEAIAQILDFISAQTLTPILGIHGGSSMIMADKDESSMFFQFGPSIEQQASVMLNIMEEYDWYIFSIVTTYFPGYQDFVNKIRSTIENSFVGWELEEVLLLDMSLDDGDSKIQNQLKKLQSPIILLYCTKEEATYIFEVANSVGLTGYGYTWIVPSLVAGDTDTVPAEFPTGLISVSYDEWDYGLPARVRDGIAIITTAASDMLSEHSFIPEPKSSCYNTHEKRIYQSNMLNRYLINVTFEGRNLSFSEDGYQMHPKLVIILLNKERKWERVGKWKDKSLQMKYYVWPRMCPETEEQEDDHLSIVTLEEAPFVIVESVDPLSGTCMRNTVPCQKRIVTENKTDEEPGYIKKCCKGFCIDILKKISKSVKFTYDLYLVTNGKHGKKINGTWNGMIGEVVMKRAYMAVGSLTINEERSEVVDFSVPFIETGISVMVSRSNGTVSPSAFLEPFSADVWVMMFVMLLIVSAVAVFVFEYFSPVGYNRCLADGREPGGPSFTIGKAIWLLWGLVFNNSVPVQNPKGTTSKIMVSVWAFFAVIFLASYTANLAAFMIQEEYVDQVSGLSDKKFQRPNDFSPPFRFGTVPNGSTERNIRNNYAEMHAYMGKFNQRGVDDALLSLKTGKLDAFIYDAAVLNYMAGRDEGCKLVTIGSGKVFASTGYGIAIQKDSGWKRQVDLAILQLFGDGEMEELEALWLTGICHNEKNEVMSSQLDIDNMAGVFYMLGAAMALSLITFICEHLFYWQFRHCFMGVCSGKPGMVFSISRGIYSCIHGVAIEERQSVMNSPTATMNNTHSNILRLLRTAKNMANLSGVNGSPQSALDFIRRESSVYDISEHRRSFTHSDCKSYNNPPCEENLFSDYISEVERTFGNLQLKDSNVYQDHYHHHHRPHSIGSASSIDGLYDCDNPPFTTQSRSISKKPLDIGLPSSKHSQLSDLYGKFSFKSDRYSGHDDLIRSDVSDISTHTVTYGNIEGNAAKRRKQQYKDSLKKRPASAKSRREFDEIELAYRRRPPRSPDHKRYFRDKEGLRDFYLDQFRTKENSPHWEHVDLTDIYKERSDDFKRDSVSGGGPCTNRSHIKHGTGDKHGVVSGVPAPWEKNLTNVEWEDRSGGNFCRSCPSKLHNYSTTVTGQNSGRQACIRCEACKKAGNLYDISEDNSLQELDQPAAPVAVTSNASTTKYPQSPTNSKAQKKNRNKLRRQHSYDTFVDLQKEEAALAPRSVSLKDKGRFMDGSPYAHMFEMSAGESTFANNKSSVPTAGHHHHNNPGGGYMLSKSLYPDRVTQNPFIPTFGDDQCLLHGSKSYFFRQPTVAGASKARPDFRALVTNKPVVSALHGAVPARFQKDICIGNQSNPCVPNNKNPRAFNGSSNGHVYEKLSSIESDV
Sequence of UniProt Q969F8 (whole entry, looked up): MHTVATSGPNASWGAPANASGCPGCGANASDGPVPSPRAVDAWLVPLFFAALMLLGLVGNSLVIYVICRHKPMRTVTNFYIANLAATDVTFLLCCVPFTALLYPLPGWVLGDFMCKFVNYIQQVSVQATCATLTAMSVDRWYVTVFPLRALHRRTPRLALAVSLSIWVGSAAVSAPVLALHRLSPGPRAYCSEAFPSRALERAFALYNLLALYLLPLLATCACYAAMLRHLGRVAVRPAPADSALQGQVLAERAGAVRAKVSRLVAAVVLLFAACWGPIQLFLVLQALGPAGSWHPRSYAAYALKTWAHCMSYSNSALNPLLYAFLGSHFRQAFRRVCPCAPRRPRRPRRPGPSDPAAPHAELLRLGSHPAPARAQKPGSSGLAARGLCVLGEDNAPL
Sequence of UniProt Q14790 (whole entry, looked up): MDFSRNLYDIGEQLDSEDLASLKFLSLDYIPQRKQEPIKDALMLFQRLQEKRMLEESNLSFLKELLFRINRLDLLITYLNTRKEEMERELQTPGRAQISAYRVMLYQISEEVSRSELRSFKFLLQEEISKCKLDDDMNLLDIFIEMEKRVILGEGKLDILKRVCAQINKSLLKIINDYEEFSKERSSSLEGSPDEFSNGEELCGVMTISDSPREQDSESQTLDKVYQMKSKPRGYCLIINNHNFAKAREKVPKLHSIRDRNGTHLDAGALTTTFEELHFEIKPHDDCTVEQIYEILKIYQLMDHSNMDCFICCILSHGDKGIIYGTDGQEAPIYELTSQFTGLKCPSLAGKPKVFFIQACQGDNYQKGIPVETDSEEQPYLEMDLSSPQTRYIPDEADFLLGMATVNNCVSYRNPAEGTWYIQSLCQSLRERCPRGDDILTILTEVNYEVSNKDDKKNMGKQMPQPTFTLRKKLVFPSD

| SMILES | target | test | system | setting | how to read | endpoint | value |
| --- | --- | --- | --- | --- | --- | --- | --- |
| CC[C@H](C)[C@H](NC(=O)CNC(=O)[C@@H](N)CCCCN)C(=O)N[C@@H](CC(C)C)C(=O)N[C@@H](CCCCN)C(=O)N[C@@H](CCCNC(=N)N)C(=O)N[C@@H](CCC(=O)O)C(=O)N[C@@H](CCCCN)C(=O)N[C@@H](CCCNC(=N)N)C(=O)N[C@@H](CC(C)C)C(=O)N[C@@H](CCCNC(=N)N)C(=O)N[C@@H](CCCNC(=N)N)C(=O)N[C@@H](CCCCN)C(=O)N[C@@H](CC(N)=O)C(=O)N[C@H](C(=O)N[C@@H](Cc1c[nH]cn1)C(=O)N[C@@H](Cc1c[nH]c2ccccc12)C(=O)N1CCC[C@H]1C(=O)N[C@@H](CCC(=O)O)C(=O)N[C@@H](CCC(=O)O)C(=O)NCC(=O)N[C@@H](CCCCN)C(=O)N[C@@H](CC(C)C)C(=O)N[C@@H](CCCNC(=N)N)C(=O)N[C@@H](CCC(=O)O)C(=O)N[C@@H](Cc1ccc(O)cc1)C(=O)N[C@@H](Cc1ccccc1)C(=O)N[C@@H](Cc1ccc(O)cc1)C(=O)N[C@@H](Cc1ccccc1)C(=O)N[C@@H](CCC(=O)O)C(=O)N[C@@H](CC(C)C)C(=O)N[C@@H](CC(=O)O)C(=O)N[C@@H](CCC(=O)O)C(=O)N[C@@H](C)C(=O)N[C@@H](CCC(=O)O)C(=O)N[C@@H](CCCNC(=N)N)C(=O)N[C@H](C(=O)N[C@@H](CC(N)=O)C(=O)N[C@H](C(=O)O)C(C)C)C(C)C)C(C)C | PP2A, PP4, PP5, PP6 catalytic subunits | competitive inhibitor, competitive inhibitor bead pulldown MS | HeLa and HEK293T cells, cell lysate | concentration not given | – | bead binding | no effect |
| CC[C@@H](C)[C@@H](NC(=O)[C@@H](Cc1ccc(O)cc1)NC(=O)[C@H]1CCCN1C(=O)[C@@H](CCCNC(=N)N)NC(=O)[C@H](N)Cc1c[nH]cn1)C(=O)N[C@H](C)C(=O)N[C@H](Cc1c[nH]cn1)C(=O)N[C@H](CCCNC(=N)N)C(=O)N[C@H](CCCCNC(=O)c1cccc(S(=O)(=O)F)c1)C(=O)N[C@H](Cc1ccc(O)cc1)C(=O)N[C@H](CO)C(=O)N[C@H](Cc1ccccc1)C(N)=O | Transferrin receptor protein 1 (Tfrc, Mus musculus, UniProt Q62351) | flow cytometry | MC-38 | 48 h, unit not given | baseline: 0 h | surface expression | 0.372 and 0.383 |
| O=C(c1ccc(Cl)cc1)N1CCN2C(=O)N(OC(=O)N3CCOc4ccccc43)C(=O)C2C1 (stereo not shown) | Isoamyl acetate-hydrolyzing esterase 1 homolog (IAH1, Homo sapiens, UniProt Q2TAA2) | MS-based ABPP | SW-620 conditioned medium | 10 µM, 1 h, 37 °C | baseline: compound over DMSO, lower = more inhibition | median protein ratio | 0.83 |
| C[C@H]1COCCN1c1nc(NCc2cccnc2C(F)(F)F)c2cccnc2n1 | CHRM2 (Homo sapiens, UniProt P08172) | binding | – | CEREP panel | – | IC50 | 37.8 µM |
| Clc1cc2c(cc1Cl)Oc1cc(Cl)c(Cl)cc1O2 | Uncharacterized protein (Takifugu rubripes, UniProt Q4JHL5) | reporter gene, agonist, dual-luciferase | COS-7 | 24 h | baseline: top over bottom | maximal fold induction | 2.3 ± 0.2 |
| O=C(Nc1cccnn1)N1CCC(=Cc2cccc(Oc3ccc(C(F)(F)F)cn3)c2)CC1 | GRM5 (Homo sapiens, UniProt P41594) | radioligand binding | – | 50 µM, with: [3H]quisqualic acid | – | inhibition of binding | 6% |
| COc1ccc(Nc2nn3c(-c4ccccc4)ccnc3c2C(=O)Nc2ccc(Cl)cc2)cc1 | α-glucosidase | SDS-PAGE | – | concentration not given, concentration equal to IC50 | – | decrease in α-glucosidase band quantity | 68.9% |
| COC(=O)[C@@]1(O)C[C@H]2O[C@]1(C)n1c3ccccc3c3c4c(c5c6ccccc6n2c5c31)C(=O)NC4 | MAPK3 (Homo sapiens, UniProt P27361) | ADP-Glo | – | 2.04 µM, with: substrate MBP | – | remaining activity | 108% |
| CN1CCN(c2cc(-c3ccncc3)c(-c3ccc4ccccc4c3)nn2)CC1 | KiSS-1 receptor (KISS1R, Homo sapiens, UniProt Q969F8) | agonist, FLIPR | – | 12.5 µM | – | activation | 6.1% |
| CN[C@@H]1C[C@H]2O[C@@](C)([C@@H]1OC)n1c3ccccc3c3c4c(c5c6ccccc6n2c5c31)C(=O)NC4 | CDC2-like kinase 1 (Trypanosoma brucei brucei, UniProt Q382U0) | kinase activity, ADP-Glo | – | 0.625 µM | – | remaining activity | 17.9% |
| COc1cccc(OC)c1C(=O)N[C@@H]1C(=O)N2[C@@H]1SC(C)(C)[C@@H]2C(=O)O | Penicillin-binding protein 2X (Streptococcus pneumoniae R6, UniProt P59676) | inhibitor | Streptococcus pneumoniae | – | – | kinact/KI | 26000 ± 4900 M⁻¹ s⁻¹ |
| C[C@H]1CN(c2n[nH]c3nc(N[C@H]4CC[C@H](NS(=O)(=O)CCC(F)(F)F)CC4)ncc23)CCO1 | 14-3-3 protein epsilon (Homo sapiens, UniProt P62258) | Kinobeads competition, refers to: YWHAE | – | 20 µM, unit not given | baseline: vehicle | remaining binding | 1.13 |
| CN(C(=O)n1cnc(-c2ccc[n+]([O-])c2)c1)C1CCCCC1 | Monoacylglycerol lipase ABHD6 (Abhd6, Rattus norvegicus, UniProt Q5XI64) | enzyme activity, ABPP | rat, brain | oral, 100 mg/kg/day, 28 days | baseline: vehicle | fold change | -18.5 |
| COc1ccc(N2C(=O)N(c3c(C)cccc3Cl)Cc3cnc(Nc4ccc(C5CCN(C)CC5)cc4OC)nc32)nc1 | CDK6 (Homo sapiens, UniProt Q00534) | kinase activity, inhibitor | – | 0.5 µM, complex with -CYCLIND3 | – | inhibition | 7% |
| CCCCCCCCCC(=O)NC1CCCC1 | qscR | ligand binding, FRET displacement | intact cells | apparent affinity | – | K0.5 | 462 nM |
| Cc1cc(C)n2c1C=C1C=CC(CCC(=O)Nc3ccc(OCC(=O)N[C@@H]4C(=O)N5[C@@H]4SC(C)(C)[C@@H]5C(=O)[O-])cc3)=[N+]1[B-]2(F)F.[Na+] | Penicillin-binding protein 2a (pbp2a, Streptococcus pneumoniae, UniProt Q8DNB6) | whole-cell time course | live Streptococcus pneumoniae cells | – | – | kinact/KI | 8500 ± 3500 M⁻¹ s⁻¹ |
| [2H]c1c([2H])c([C@]2([2H])CCCN2C(=O)C(C)(C)Oc2ccc3cn[nH]c3c2)c([2H])c([2H])c1C([2H])([2H])[2H] | MELK (Homo sapiens, UniProt Q14680) | KINOMEscan | – | 1 µM | baseline: DMSO control | remaining binding | 85% |
| CC1(C)C(C=C(Cl)Cl)C1C(=O)OCc1cccc(Oc2ccccc2)c1 (stereo not shown) | uncharacterized protein (Anopheles coluzzii, UniProt A0A6E8VQK1) | enzyme activity, inhibitor | Sf9 cell homogenate | 186 µM, 0.1667 h, with: α-naphthyl acetate substrate | baseline: no inhibitor | remaining activity | 3.3% |
| CN(C(=O)n1cnc(-c2ccc[n+]([O-])c2)c1)C1CCCCC1 | AGTR2 (Homo sapiens, UniProt P50052) | radioligand binding, inhibitor | – | 50 µM | – | inhibition | -5% |

| SMILES | target | test | system | setting | how to read | endpoint | value |
| --- | --- | --- | --- | --- | --- | --- | --- |
| O=C[C@H](O)COP(=O)(O)O | TPI1 (Saccharomyces cerevisiae, UniProt P00942, Y208F) | substrate, GPDH/NADH-coupled | – | pH 4.9, 25 °C | – | Km | ~35 mM |
| O=C(O)Cc1c[nH]cn1 | SLC6A6 (Homo sapiens, UniProt P31641, Y138A) | binding, microscale thermophoresis | – | 977 nM, room temperature, with: 50 nM labelled protein | higher = more binding | normalised MST signal | 0.0149 |
| CCOC(=O)COc1ccc2c(=O)c3ccccc3oc2c1 | ache (Electrophorus electricus, UniProt O42275) | enzyme activity | – | 3.36 µM, with: substrate 0.43 mM | higher = faster reaction | reaction velocity | 0.0005 a.u. |
| CCN(CC)CCCC[C@H](NC(=O)[C@H](CC(C)C)NC(=O)[C@H](C)NC(=O)[C@H](Cc1ccccc1)NC(=O)c1ccc(C(C)(C)C)cc1)C(=O)N[C@@H](CO)C(=O)OC | Transcription intermediary factor 1-alpha, bromodomain (TRIM24, Homo sapiens, UniProt O15164) | thermal stabilisation, thermal shift | – | 25 µM | baseline: protein without compound, higher = stronger binding | delta Tm | 0.27 °C |
| O=C(Nc1nncs1)C(F)(F)I | MAPK8 (Homo sapiens, UniProt P45983) | binding, isothermal titration calorimetry | – | – | – | ligand efficiency | 0.46 |
| CC(C)(C)C(=O)CSc1ncc2c(n1)-c1cc(Cl)ccc1CC2 | Dual specificity protein phosphatase 10, catalytic domain (Homo sapiens, UniProt Q9Y6W6) | X-ray co-crystal structure | – | concentration not given | – | active site volume | 53.1 ± 1.9 Å³ |
| COc1cc(Nc2ncc(F)c(Nc3ccc4c(n3)NC(=O)C(C)(C)O4)n2)cc(OC)c1OC | PIP5K1C (Homo sapiens, UniProt O60331) | KINOMEscan | – | 10 µM | – | inhibition | 100% |
| COc1cc(O)cc(/C=C/c2ccc(O)cc2)c1 | O-methyltransferase (Sorghum bicolor, UniProt A0A1B6PFV1) | – | – | concentration not given, with: SAH+ | – | ΔH of binding | -10.5 ± 0.212 kcal/mol |
| C/C=C1/C(=O)C[C@H]2[C@@H]3CCC4=CC(=O)CC[C@]4(C)[C@H]3CC[C@]12C | NR1H3 (Homo sapiens, UniProt Q13133) | coactivator recruitment | – | – | – | IC50 | inactive |
| COc1cc(N)c(Cl)cc1C(=O)NC1CN2CCC1CC2 (stereo not shown) | Mas-related G-protein coupled receptor member F (MRGPRF, Homo sapiens, UniProt Q96AM1) | β-arrestin recruitment, TANGO luminescence, refers to: MRGPRF | – | concentration not given | baseline: basal luminescence | log2 fold change | -0.3 |
| CCCCCCCCCC(=O)CC(=O)N[C@H]1CCOC1=O | qscR | ligand binding, FRET displacement | intact cells | apparent affinity | – | K0.5 | 17 nM |
| CCc1cc(O)cc2c(/C=N/NC(=N)NCCc3ccc(Cl)cc3)c[nH]c12 | RXFP3 (Homo sapiens, UniProt Q9NSD7) | – | – | – | – | Emax | 104 ± 13% |
| CC[C@H](C)[C@H](NC(C)=O)C(=O)N[C@@H](CCC(=O)O)C(=O)N[C@H](C(=O)N[C@H](C=O)CC(=O)O)[C@@H](C)O | Caspase-8 (CASP8, Homo sapiens, UniProt Q14790) | – | – | – | – | Hill slope | -1.22 |
| COc1cc2nccc(Oc3ccc(NC(=O)c4cc5c(n(-c6ccccc6)c4=O)CCCC5=O)nc3)c2cc1OC | NTRK2 (Homo sapiens, UniProt Q16620) | cell viability, CellTiter-Glo | Ba/F3 expressing recombinant kinase | – | baseline: NTRK2 IC50 over AXL IC50 | selectivity ratio | 23 |
| CC[C@H](C)[C@@H]1NC(=O)[C@H](Cc2c[nH]c3ccccc23)NC(=O)[C@H](Cc2ccc(O)cc2)NC(=O)CSC[C@@H](C(N)=O)NC(=O)[C@H]([C@@H](C)O)NC(=O)[C@H](CO)NC(=O)[C@H](C(C)C)NC(=O)[C@H](Cc2ccc(O)cc2)NC(=O)[C@H](CCCNC(=N)N)NC(=O)[C@H](Cc2ccc(O)cc2)NC(=O)[C@H]([C@@H](C)O)NC(=O)[C@H]([C@@H](C)O)NC(=O)[C@H](Cc2c[nH]c3ccccc23)NC(=O)[C@H](CO)NC(=O)[C@H](CC(N)=O)NC(=O)[C@H](CO)NC1=O | Vacuolar protein sorting-associated protein 26A/Vacuolar protein sorting-associated protein 35, Vps35 residues 1–224 (Homo sapiens, UniProt O75436+Q96QK1) | ITC | – | 25 °C | – | ΔG | -9.1 ± 0.11 kcal/mol |
| Nc1ncnc2c1ncn2[C@@H]1O[C@H](COP(=O)(O)OP(=O)(O)O)[C@@H](O)[C@H]1O | Cell cycle histidine kinase CckA, cytoplasmic region (Caulobacter vibrioides, UniProt Q9X688) | binding, ITC | – | with: without c-di-GMP | – | ΔS | 9.73 cal/mol/K |
| Nc1ncnc2c1ncn2[C@@H]1O[C@H](COP(=O)(O)OP(=O)(O)OP(=O)(O)O)[C@@H](O)[C@H]1O | axonemal dynein ATPase | substrate | Triton-extracted reactivated sperm | oligomycin-insensitive ATPase | – | Km | 0.15 mM |
| CC(C)[C@@H](O)CC[C@@H](C)[C@H]1CC[C@H]2[C@@H]3CC=C4C[C@@H](O)CC[C@]4(C)[C@H]3CC[C@]12C | Glutamate NMDA receptor; GRIN1/GRIN2B (GRIN1/GRIN2B, Homo sapiens, UniProt Q05586+Q13224, E657A) | positive allosteric modulator, two-electrode voltage clamp | Xenopus oocytes expressing GluN2B-E657A | 10 µM, 0.02% cremophor, with: 100 µM glutamate and glycine | baseline: without compound | current response | 227 ± 18% |
